# Measured values of several laboratories.
# Lines come from different studies, so protocols differ. Numbers after ± are the reported error.
# CYP1A2: Cytochrome P450 1A2 (CYP1A2, Homo sapiens, UniProt P05177)
# Chain of UniProt P05177 (whole entry, looked up): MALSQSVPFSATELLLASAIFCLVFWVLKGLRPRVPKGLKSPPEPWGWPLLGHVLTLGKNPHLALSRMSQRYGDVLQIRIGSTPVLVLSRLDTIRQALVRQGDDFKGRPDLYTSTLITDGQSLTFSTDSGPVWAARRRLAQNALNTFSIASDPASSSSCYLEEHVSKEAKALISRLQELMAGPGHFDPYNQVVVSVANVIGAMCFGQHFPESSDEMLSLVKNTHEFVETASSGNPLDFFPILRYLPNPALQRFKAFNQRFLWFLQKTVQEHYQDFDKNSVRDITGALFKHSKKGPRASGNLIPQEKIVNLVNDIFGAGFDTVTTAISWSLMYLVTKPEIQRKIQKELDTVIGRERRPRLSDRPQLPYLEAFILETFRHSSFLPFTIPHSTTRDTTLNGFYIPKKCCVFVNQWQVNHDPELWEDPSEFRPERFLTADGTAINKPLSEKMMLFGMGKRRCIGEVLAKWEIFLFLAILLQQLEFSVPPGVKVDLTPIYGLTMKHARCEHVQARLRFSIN
# Chain of UniProt P03956 (whole entry, looked up): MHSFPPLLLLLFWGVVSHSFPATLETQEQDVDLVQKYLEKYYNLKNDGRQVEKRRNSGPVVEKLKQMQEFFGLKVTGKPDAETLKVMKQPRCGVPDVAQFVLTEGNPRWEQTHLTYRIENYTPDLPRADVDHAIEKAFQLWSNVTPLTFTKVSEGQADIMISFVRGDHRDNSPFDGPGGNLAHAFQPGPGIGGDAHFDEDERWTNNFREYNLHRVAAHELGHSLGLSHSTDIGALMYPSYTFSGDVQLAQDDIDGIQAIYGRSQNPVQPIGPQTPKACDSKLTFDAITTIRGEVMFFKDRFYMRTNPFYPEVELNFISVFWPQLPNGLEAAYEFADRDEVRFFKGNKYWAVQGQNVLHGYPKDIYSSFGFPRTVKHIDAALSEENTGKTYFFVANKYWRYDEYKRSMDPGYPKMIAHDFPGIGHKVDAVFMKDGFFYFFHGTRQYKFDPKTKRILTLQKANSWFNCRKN
Structure (SMILES),tested on,assay,test system,setting,how to read,measurement,value
O=c1[nH]c(Cc2ccccn2)nc2c1cnn2C1CCOCC1,,,"healthy men, extensive metabolizers, plasma","oral, 10 mg single dose, tablet, geometric mean",,AUC(0-inf),0.0959 µM·h
CNC(=O)O/N=C/C(C)(C)[S+](C)[O-] (stereo not drawn),CYP1A2,inhibitor,human liver microsomes,"2 µM, pH 7.4, with: phenacetin",,inhibition,< 0%
Nc1ncnc2c([C@@H]3N[C@H](CO)[C@@H](O)[C@H]3O)c[nH]c12,Zika virus,,"Vero 76, PRVABC59",unit not given,reference: CC over EC90,SI90,5.5
CC(=O)N[C@H](CCCCNC(=O)C(C)F)C(=O)N[C@@H](CS)C(=O)N[C@@H](CS)C(=O)N[C@@H](CCC(=O)O)C(=O)N[C@@H](Cc1c[nH]cn1)C(=O)N[C@H](Cc1ccccc1)C(=O)N[C@@H](CCCNC(=N)N)C(=O)N[C@@H](Cc1c[nH]c2ccccc12)C(=O)N[C@@H](CS)C(=O)N[C@@H](CCCNC(=N)N)C(=O)N1CCC[C@H]1C(=O)N[C@H](C(N)=O)C(C)C (stereo partly drawn) [fluorine-18 labelled],,,"nude mice, A375M xenograft, spleen","intravenous, 2 h",,tissue uptake,0.34 ± 0.19 %ID/g
Cc1ncc2n1-c1ccc(Cl)cc1C(c1ccccc1F)=NC2,,,"healthy men, plasma","oral, 7.5 mg, day 19, arithmetic mean, with: 7 days post amenamevir",,AUC(0-inf),130 ng·h/mL
C[C@H]1CNCCc2ccc(Cl)cc21,,,"Sprague-Dawley rat, male, plasma","subcutaneous, 1 mg/kg, 120 min",,plasma concentration,9.88 ± 0.6 ng/mL
CCCCCCCCCCC(=O)O[C@H]1CC[C@H]2[C@@H]3CCC4=CC(=O)CC[C@]4(C)[C@H]3CC[C@]12C,,,"blood of hypogonadal men, plain tubes",1000 ng/mL,,serum testosterone,578 ± 66.6 ng/dL
O=C(O)CCCC1C2CCCN3CCCC(CN1S(=O)(=O)c1ccc(Cl)cc1)C23 (stereo not drawn),HEK293T,,,,,CC50,200 µM
CCN(N=O)C(C)C,"Salmonella typhimurium, Escherichia coli",preincubation Ames test,,"concentration not given, with and without S9",,mutagenicity,positive
C=C1C[C@@H]2[C@H](CC[C@]3(C)C(=O)CC[C@@H]23)[C@@]2(C)C=CC(=O)C=C12,,LC-MS/MS,"postmenopausal breast cancer women, plasma","oral, 25 mg/day steady state, 2 h post-dose, all patients, below LLOQ set to 2.5 ng/mL",,plasma concentration range,2.5 to 72 ng/mL
CN(N=O)c1ccccc1,"Salmonella typhimurium, Escherichia coli",preincubation Ames test,,"concentration not given, with and without S9",,mutagenicity,positive
[123I]c1cncc(OC[C@@H]2CCN2)c1,,SPECT,"human, cingulate gyrus","intravenous bolus plus infusion, 5.2 mCi",reference: tissue over plasma,tissue/plasma ratio,23.4
COc1ccsc1CNCC[C@@]1(c2ccccn2)CCOC2(CCCC2)C1,,,"healthy human, normal hepatic function, plasma","intravenous, 1 mg single dose, geometric mean",,clearance,705 mL/min
O=NN1CC[C@@H](c2ccc(F)cc2)[C@H](COc2ccc3c(c2)OCO3)C1,"Salmonella typhimurium, Escherichia coli",preincubation Ames test,,"concentration not given, with and without S9",,mutagenicity,negative
CNC(C)Cc1ccc2c(c1)OCO2 (racemic),,"visual analog scale, item: Dizzy",human,"oral, 1.5 mg/kg, mean over session, unit not given",reference: pre-dose baseline,mood rating,15.4
CN[C@@](C)(C[18F])C(=O)O,DU-145 tumour model,,"host not given, lung","1 h, tumour-bearing",,tracer uptake,1.4 %ID/g
CNC(=O)O/N=C/C(C)(C)SC,CYP1A2,inhibitor,human liver microsomes,"2 µM, pH 7.4, with: phenacetin",,inhibition,6.19%
CN(CCOC(c1ccccc1)c1ccccc1)N=O,"Salmonella typhimurium, Escherichia coli",preincubation Ames test,,"concentration not given, with and without S9",,mutagenicity,positive
CC[N+]1=C(C=CC=CC=C2N(CCCCCC(=O)NCCN3C(=O)CC(SC[C@@H](NC(=O)[C@@H](CCCNC(=N)N)NC(=O)[C@@H](CCCNC(=N)N)NC(=O)[C@@H](CCCNC(=N)N)NC(=O)[C@@H](CCCNC(=N)N)NC(=O)[C@@H](CCCNC(=N)N)NC(=O)[C@@H](CCCNC(=N)N)NC(=O)[C@@H](CCCNC(=N)N)NC(=O)[C@@H](CCCNC(=N)N)NC(=O)[C@@H](CCCNC(=N)N)NC(=O)[C@H](CC(C)C)NC(=O)[C@H](CCCCN)NC(=O)[C@H](CC(C)C)NC(=O)[C@H](CCC(N)=O)NC(=O)[C@H](CC(C)C)NC(=O)[C@H](CCCNC(=N)N)NC(=O)CCCCCNC(=O)[C@@H](CCC(=O)O)NC(=O)[C@@H](CCC(=O)O)NC(=O)[C@@H](CCC(=O)O)NC(=O)[C@@H](CCC(=O)O)NC(=O)[C@@H](CCC(=O)O)NC(=O)[C@@H](CCC(=O)O)NC(=O)[C@@H](CCC(=O)O)NC(=O)[C@@H](CCC(=O)O)NC(=O)[C@H](N)CCC(=O)O)C(N)=O)C3=O)c3ccc(S(=O)(=O)O)cc3C2(C)C)C(C)(C)c2cc(S(=O)(=O)[O-])ccc21 (stereo partly drawn),"MMP1 (Homo sapiens, UniProt P03956)",substrate,,"5 µM, 2 h",,cleavage,9.7 ± 1.1%
CCCCN(CCCC)N=O,"Salmonella typhimurium, Escherichia coli",preincubation Ames test,,"concentration not given, with and without S9",,mutagenicity,positive
O[C@H]1CCCN[C@@H]1CCCn1cnc2c(Cl)c(Cl)ccc21,,,"healthy human volunteers, plasma","oral, 50 mg, day 1, median",,Tmax,3 h
